# Results collected from several papers.
# Each line is one published result; not all experiments were run side by side.
Compound,test system,conditions,Papp [×10⁻⁶ cm/s]
CN(C)C(=O)c1cccc(N2Cc3cn(Cc4ccc(F)cc4F)nc3C2)c1,MDCK-MDR1,,46.3
CC(C)COC(=O)c1ccc(O)cc1,PAMPA,"5 µM, pH 7.4",5.15
CN(C)C(=O)c1ccnc(N2Cc3cn(Cc4cc(F)cc(F)c4)nc3C2)n1,MDCK-MDR1,,30
C/C(N)=N/C(=N\S(=O)(=O)c1ccc(C(F)(F)F)cc1)N1C[C@H](c2ccccc2)C(c2ccc(Cl)cc2)=N1,PAMPA,pH 7.4,726
COc1cccc(CNc2ccc3c(c2)S(=O)(=O)C=C3)c1,PAMPA-BBB,pH 7.4,12.8
CN(C)C(=O)c1cccc(N2Cc3cnn(Cc4ccc(F)cc4)c3C2)c1,MDCK-MDR1,,7.4
CC[C@H](C)[C@@H]1NC(=O)[C@H](Cc2ccc(O)cc2)NC(=O)CSC[C@@H](C(N)=O)NC(=O)[C@H](CC(N)=O)NC(=O)[C@H](Cc2cnc[nH]2)NC(=O)[C@H](Cc2ccc(O)cc2)NC(=O)[C@H](CC(=O)O)NC(=O)[C@H](Cc2ccc(O)cc2)NC(=O)[C@H](CC(C)C)NC(=O)[C@H](CCCNC(=N)N)NC1=O,PAMPA,"200 µM, 5 h, pH 7.4",0.0419
Cc1cc(C(=O)N[C@@H](CC(=O)NC(C)(C)C)C(=O)NCCNC(=O)c2cccc(-n3cccn3)c2)no1,PAMPA,pH 7.4,6.4
COc1ccc(CNc2ccc3c(c2)S(=O)(=O)CC3OC)cc1 (stereo not drawn),PAMPA-BBB,pH 7.4,18
CCC(C)OC(=O)c1ccc(O)cc1 (stereo not drawn),PAMPA,"5 µM, pH 7.4",5.64
CN(C)C(=O)c1ccnc(N2Cc3cn(Cc4ccc(F)cc4)nc3C2)n1,MDCK-MDR1,,27.3
O=S1(=O)C=Cc2ccc(NCc3cccc(O)c3)cc21,PAMPA-BBB,pH 7.4,16
CC[C@H](C)[C@@H]1NC(=O)[C@H](Cc2ccccc2)NC(=O)CSC[C@@H](C(N)=O)NC(=O)[C@H](CC(N)=O)NC(=O)[C@H](Cc2c[nH]cn2)NC(=O)[C@H](Cc2ccc(O)cc2)NC(=O)[C@H](C)NC(=O)[C@H](Cc2ccc(F)cc2)NC(=O)[C@H](CC(C)C)NC(=O)[C@H](CCCCN)NC1=O,PAMPA,"200 µM, 5 h, pH 7.4",0.0226
Cc1cc(C(=O)N[C@@H](CC(=O)NC(C)(C)C)C(=O)NCCNC(=O)c2cc(-c3ccccc3)ccn2)no1,PAMPA,pH 7.4,26.6
O=S1(=O)C=Cc2ccc(NCc3ccc(O)cc3)cc21,PAMPA-BBB,pH 7.4,12.8

# Some of these lines once more:
Compound,test system,conditions,Papp [×10⁻⁶ cm/s]
CN(C)C(=O)c1cccc(N2Cc3cnn(Cc4ccc(F)cc4)c3C2)c1,MDCK-MDR1,,7.4
